Assay results gathered from unrelated publications.
Numbered parts are unrelated; each lists some results of a single study. Changes are numbered by the printed parent chain.

Block 1 — target: tungstate, free oxyanion; method: microfluidic competitive inhibition; matrix: in vitro, cell-free expressed; concentration: not given; reading: lower = stronger binding
Setting: derived from inhibition constants, unchanged parent 2230 nM
Starting sequence: PafA, mature enzyme, eGFP fusion (Elizabethkingia meningoseptica, UniProt Q9KJX5); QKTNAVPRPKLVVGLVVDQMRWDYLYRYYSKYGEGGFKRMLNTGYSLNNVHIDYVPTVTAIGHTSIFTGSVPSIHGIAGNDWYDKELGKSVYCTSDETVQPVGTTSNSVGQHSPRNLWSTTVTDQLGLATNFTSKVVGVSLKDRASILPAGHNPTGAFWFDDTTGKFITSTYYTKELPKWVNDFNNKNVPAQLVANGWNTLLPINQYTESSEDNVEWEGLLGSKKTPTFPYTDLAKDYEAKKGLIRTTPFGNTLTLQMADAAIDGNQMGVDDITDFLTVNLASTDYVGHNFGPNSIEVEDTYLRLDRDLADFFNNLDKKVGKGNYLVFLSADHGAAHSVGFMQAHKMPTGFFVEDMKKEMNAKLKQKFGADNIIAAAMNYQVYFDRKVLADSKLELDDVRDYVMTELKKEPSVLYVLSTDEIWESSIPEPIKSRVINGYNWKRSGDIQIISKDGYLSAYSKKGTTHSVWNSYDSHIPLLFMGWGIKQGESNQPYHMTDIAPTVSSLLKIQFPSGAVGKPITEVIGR
For `N361V`, “oxyanion analog dissociation constant” read 1.94 µM.
`V403A`: “oxyanion analog dissociation constant” 2.34 µM.
Under “oxyanion analog dissociation constant”, `F250G` is recorded as 1.14 µM.
`L256V`: “oxyanion analog dissociation constant” 2.77 µM.
`L244V` — result for “oxyanion analog dissociation constant”: 2.45 µM.
Under “oxyanion analog dissociation constant”, `G454A` is recorded as 2.07 µM.
`N379G` — result for “oxyanion analog dissociation constant”: 2.12 µM.
Under “oxyanion analog dissociation constant”, `A336G` is recorded as 1.64 µM.
`L47V`: “oxyanion analog dissociation constant” 2.26 µM.
`V327A`: “oxyanion analog dissociation constant” 2.07 µM.
Under “oxyanion analog dissociation constant”, `S425V` is recorded as 2.25 µM.
`D371G`: “oxyanion analog dissociation constant” 1.88 µM.
Under “oxyanion analog dissociation constant”, `K225V` is recorded as 2.27 µM.
Under “oxyanion analog dissociation constant”, `Q192V` is recorded as 2.25 µM.
Under “oxyanion analog dissociation constant”, `T105V` is recorded as 2.16 µM.
For `Y402G`, “oxyanion analog dissociation constant” read 2.12 µM.
`V109G` — result for “oxyanion analog dissociation constant”: 2.02 µM.
`D401V`: “oxyanion analog dissociation constant” 2.2 µM.
For `N153G`, “oxyanion analog dissociation constant” read 1.84 µM.
Under “oxyanion analog dissociation constant”, `I422G` is recorded as 1.38 µM.
`A282V` — result for “oxyanion analog dissociation constant”: 78.1 µM.
`R21V`: “oxyanion analog dissociation constant” 2.49 µM.
`S95V` — result for “oxyanion analog dissociation constant”: 4.95 µM.
`K387G` — result for “oxyanion analog dissociation constant”: 2.17 µM.
`Y238G`: “oxyanion analog dissociation constant” 2.11 µM.

Block 2 — target: CCND3, cyclin fold, Cln2 fusion (human); method: yeast growth competition, sequencing; matrix: yeast; setting: weak parent motif; relative to: not given; reading: higher = stronger binding; starting sequence: viral docking peptide; TSVRRALFTGGSD
`V3P` — result for “normalised enrichment score”: -0.0393.
Under “normalised enrichment score”, `F8I` is recorded as 0.00077.
For `L7T`, “normalised enrichment score” read 0.208.
`R5F` — result for “normalised enrichment score”: 0.0448.
For `R5P`, “normalised enrichment score” read -0.138.
`T1A` — result for “normalised enrichment score”: 0.168.

Block 3 — method: RNA Bind-n-Seq; molecule type: RNA; matrix: in vitro; concentration: 365 nM; relative to: no-protein control; reading: higher = stronger binding
Target: RNA binding protein fox-1 homolog 2, RRM domain, GST-SBP tag (RBFOX2, Homo sapiens, UniProt O43251-10, residues 100-194)
Setting: natural RNA segment, single round, ends assumed
Constant ends, left off below: GGGAGUUCUACAGUCCGACGAUC … UGGAAUUCUCGGGUGCCAA
Target sequence (chain): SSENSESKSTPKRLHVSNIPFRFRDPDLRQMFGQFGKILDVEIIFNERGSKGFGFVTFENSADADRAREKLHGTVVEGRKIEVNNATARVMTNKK
For `AAGCUGGACCUUUUCCCUUGCUGUACCAUAUUCAGCAUUUGAUUUCCAUGGGCCCCACCAUUUAUGUGUAGAAUUUGAAAUGGUUGUCACCUCUCUCUGAGGACAGAGCU`, “RBNS enrichment (R)” read 0.341.
`CUGCUCCUCCAGGCUGUAUAGACCUGCCCUCUUGCAUUAAACAACUUCUCUUGAGCUGCAACUUUCAGCCAAGCCCAGCAACCUCUUUGCAUACCUAAGGCCAGUUCCCU` — result for “RBNS enrichment (R)”: 2.18.
Under “RBNS enrichment (R)”, `GGAUCACAGUAUGGGAAUGACUGAUGUGACCUUGAAUGCAGCUUGGUUUGACUGACAUUAAAGCCAGUGUUAAAAACUAAAGCUUAGCAACAAAUGUUUUACUAUUUUUA` is recorded as 2.28.
For `UCAUCUGAGAACUUCUGAUUAGCUCUCAGUCUUCAGCUCUAUUUAUCUUAGGAGUUUAAUUUGCCCUUCUCUCCCCAUCUUCCCUCAGUUCCCAUAAAACCUUCAUUACA`, “RBNS enrichment (R)” read 0.986.
Under “RBNS enrichment (R)”, `AGUUCAUAACCAGCUUCAUAUUUUAAAGGCUUCAGGUUUGAAAUUAAGUCAACUGCAUGCAGCUUUGCUGAUAAAUGAAUAAUUCUCUUUGAUGCCAUUUAUGAGAAAAG` is recorded as 2.52.
For `GCCUUCCCCAAGACAAUGAGGUUUGCCUGCACCCUGGCCUGCUACCUGGACUUUGCCUGGUGCCUUCUAGGCGUCUUUCAGAGAUGGCCCAGGAGGCUUGGAGCUUGGAC`, “RBNS enrichment (R)” read 0.508.
Under “RBNS enrichment (R)”, `CCCUGCCCCCUUUCCAUUCGUGGGGAAGAAGGCAGGAGAGAGCUGGGAAAUCACAGUUCAUCACUUGAGCAUCAUAGCCUUACCCCUCGCCCCUGGUCCUACUCCUGCCU` is recorded as 0.281.
`CUUAAUAGGAUGGUGCCCAUAUAGGUGAGCAUCCCUUUAGAUCAUGGGAACCAGCAGACUGCAUUCCUAAUCUUCAUUAUGCCUGAGACUUGUCUUACAAUGUUACCUUU` — result for “RBNS enrichment (R)”: 0.293.

Block 4 — method: protein-binding microarray; molecule type: double-stranded DNA, one strand shown; matrix: in vitro; concentration: not given; reading: higher = stronger binding
Target: Max dimerization protein 1, bHLH-zipper, MAX partner unstated (MXD1, Homo sapiens, UniProt Q05195, residues 56-136)
Setting: k-mer, scored over probes, only values ≥0.25
Construct (chain): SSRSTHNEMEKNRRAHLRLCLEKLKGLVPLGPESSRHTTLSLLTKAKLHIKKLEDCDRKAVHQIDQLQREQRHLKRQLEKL
With `GGCACCAC` the E-score was 0.269.
For `CACGCTCG`, the E-score was 0.37.
`ACTCTCCC` has an E-score of 0.257.
`GCGCACGA` gave an E-score of 0.348.
`GCATGTAA` gave an E-score of 0.301.
`CGTTATCC` gave an E-score of 0.26.
With `CACATGTG` the E-score was 0.474.
The E-score of `CATGCCCA` is reported as 0.324.

Other studies, line by line — CCT7: CCT7 (Homo sapiens, UniProt Q99832)
`CCT2 (Homo sapiens, UniProt P78371)`: interaction screen “cross-linked” (CCT7; cross-linking MS; hits only).
`TAPFYPPAYQI` — result for “enrichment fold change”: 1.02 (Ni-NTA bead binding, phage display NGS; peptide, phage-displayed 11-mer library; concentration not given, with: Ni-NTA beads; relative to: input library).
For `P4HB (Homo sapiens, UniProt P07237)`, interaction screen read “cross-linked” (P4HA1 (Homo sapiens, UniProt P13674); cross-linking MS; hits only).
`TAPFYPPAYEI`: “enrichment fold change” 1.71 (Ni-NTA bead binding, phage display NGS; peptide, phage-displayed 11-mer library; concentration not given, with: Ni-NTA beads; relative to: input library).
Under interaction screen, `MYL6 (Homo sapiens, UniProt P60660)` is recorded as “cross-linked” (MYO18A (Homo sapiens, UniProt Q92614); cross-linking MS; hits only).
`CCT4 (Homo sapiens, UniProt P50991)` — result for interaction screen: “cross-linked” (CCT7; cross-linking MS; hits only).
